Measured values of several laboratories.
Each line is one published result; not all experiments were run side by side. Numbers after ± are the reported error.
Chain of UniProt P10635 (whole entry, looked up): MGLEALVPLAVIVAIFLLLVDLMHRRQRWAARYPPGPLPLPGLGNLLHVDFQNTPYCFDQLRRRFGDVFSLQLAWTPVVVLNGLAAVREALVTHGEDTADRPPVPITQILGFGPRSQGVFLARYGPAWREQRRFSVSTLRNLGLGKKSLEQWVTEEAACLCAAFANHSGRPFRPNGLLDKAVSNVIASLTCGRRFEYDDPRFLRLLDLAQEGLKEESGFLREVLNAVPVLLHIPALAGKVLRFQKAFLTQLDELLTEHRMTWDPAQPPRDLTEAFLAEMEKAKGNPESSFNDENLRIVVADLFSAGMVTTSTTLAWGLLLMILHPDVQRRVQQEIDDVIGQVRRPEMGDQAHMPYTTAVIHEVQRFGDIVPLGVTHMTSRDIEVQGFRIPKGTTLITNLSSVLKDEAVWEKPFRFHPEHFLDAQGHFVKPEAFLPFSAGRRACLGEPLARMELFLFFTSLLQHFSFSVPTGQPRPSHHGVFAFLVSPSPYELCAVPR

SMILES	target or system	assay	system	setting	how to read	quantity	value
COc1cccc(-c2n[nH]c(SCc3ccccn3)n2)c1OC	Salmonella typhimurium	Ames test, plate incorporation	TA98	0.031 mg/plate, without S9		revertant colonies per plate	16
CO[C@H]1C[C@@H]2CC[C@@H](C)[C@@](O)(O2)C(=O)C(=O)N2CCCC[C@H]2C(=O)O[C@H]([C@H](C)C[C@@H]2CC[C@@H](OC(=O)NCCOCCOCCOCCOCCOCCOCCOCCOCCC(=O)N3CCc4cc(Cn5nc(-c6ccc7oc(N)nc7c6)c6c(N)ncnc65)ccc4C3)[C@H](OC)C2)C[C@@H](O)[C@H](C)/C=C(\C)[C@@H](O)[C@@H](OC)C(=O)[C@H](C)C[C@H](C)/C=C/C=C/C=C/1C		phase 1 dose escalation	advanced solid tumour patients	intravenous, 6 mg weekly, any grade		any SAE incidence	50%
CN1CC[C@@H](c2c(O)cc(O)c3c(=O)cc(-c4ccc(C(F)(F)F)cc4Cl)oc23)[C@@H]1CO		measured: Dyspnea	B-cell malignancies	oral, 100 mg, intermittent dosing		patients with adverse event	0%
OCc1ncc2n1-c1ccc(Cl)cc1C(c1ccccc1F)=NC2			human, plasma	7.5 mg midazolam, day 26, geometric mean, metabolite of midazolam, together with: midazolam 7.5 mg alone		half-life	3.3 h
Cc1ncc2n1-c1ccc(Cl)cc1C(c1ccccc1F)=NC2			wild-type mice, plasma	intravenous, 0.3 mg/kg, together with: 14-day BC 500 mg/kg		AUC(0-90 min)	102 ± 18.7 nM·h
CC[C@H](C)[C@H](NC(=O)[C@H](CC(C)C)NC(=O)[C@H](CCCNC(=N)N)NC(=O)[C@H](CC(C)C)NC(=O)[C@@H](NC(=O)[C@@H](NC(=O)[C@H](CCCNC(=N)N)NC(=O)[C@@H](NC(=O)[C@@H](NC(=O)[C@H](CCCNC(=N)N)NC(=O)[C@H](CCCNC(=N)N)NC(=O)[C@H](CCCNC(=N)N)NC(=O)[C@H](CO)NC(=O)[C@@H](N)CCCNC(=N)N)[C@@H](C)CC)[C@@H](C)CC)[C@@H](C)CC)C(C)C)C(=O)N[C@@H](CCCNC(=N)N)C(=O)N[C@@H](CCCNC(=N)N)C(=O)N[C@@H](CO)C(=O)N[C@@H](C)C(=O)N[C@@H](CCCNC(=N)N)C(N)=O	human erythrocytes			400 µM, 1 h	reference: Triton X-100	hemolysis	76%
COc1cc2c(Oc3ccc4[nH]c(C)cc4c3F)ccnc2cc1OCC1(N)CC1			paediatric recurrent refractory sarcoma	8 mg		grade 3 Hematochezia	0%
CC(C)CC(=O)OC[C@H]1O[C@@](C#N)(c2ccc3c(N)ncnn23)[C@H](O)[C@@H]1O	Cytochrome P450 2D6 (CYP2D6, Homo sapiens, UniProt P10635)	metabolic stability	recombinant enzyme	1 µM, 30 min		remaining compound	97.3 ± 2.24%
CCCCCC(=O)N[C@@H](CCCNC(=N)N)C(=O)N[C@@H](CCCNC(=N)N)C(=O)N[C@@H](CCCNC(=N)N)C(=O)N[C@@H](CCCNC(=N)N)C(=O)N[C@H](C(=O)N[C@@H](CC(C)C)C(=O)N[C@H](C(=O)N[C@@H](CCCNC(=N)N)C(=O)N[C@@H](CCCNC(=N)N)C(=O)N[C@H](C(=O)N[C@@H](CC(C)C)C(=O)N[C@@H](CCCNC(=N)N)C(=O)N[C@@H](CC(C)C)C(=O)N[C@@H](CCCNC(=N)N)C(=O)N[C@@H](CO)C(=O)N[C@@H](CO)C(=O)N[C@@H](C)C(=O)N[C@@H](Cc1ccc(O)cc1)C(N)=O)C(C)C)[C@@H](C)CC)[C@@H](C)CC	human erythrocytes			400 µM, 1 h	reference: Triton X-100	hemolysis	20%
